Assay results gathered from unrelated publications.
Numbers after ± are the reported error.

Structure (SMILES) | tested on | test | test system | setting | how to read | quantity | result
CN1CCC(C(=O)Nc2n[nH]c3nnc(-c4ccccc4)cc23)CC1.Cl | Trypanosoma brucei brucei | cell growth | – | concentration not given, PKIS HTS | – | inhibition | 20.3%
CC(=O)OC[C@@]1(C)[C@H]2CC[C@@H]3CN(Cc4ccccc4C)[C@@H](C4=CCOC4=O)C[C@H]3[C@]2(C)CC[C@H]1OC(C)=O | Human coronavirus 229E | cytopathic effect | MRC5 | 25 µM, corrected for cytotoxicity | – | inhibition | 76.3%
COC[C@H]1O[C@@H]2O[C@H]3[C@H](OC)[C@@H](OC)[C@@H](O[C@H]4[C@H](OC)[C@@H](OC)[C@@H](O[C@H]5[C@H](OC)[C@@H](OC)[C@@H](O[C@H]6[C@H](OC)[C@@H](OC)[C@@H](O[C@H]7[C@H](OC)[C@@H](OC)[C@@H](O[C@H]8[C@H](OC)[C@@H](OC)[C@@H](O[C@H]1[C@H](OC)[C@H]2OC)O[C@@H]8COC)O[C@@H]7COC)O[C@@H]6COC)O[C@@H]5COC)O[C@@H]4COC)O[C@@H]3COC | Escherichia coli | LuxR reporter, antagonist | DH5α sensor strain | 200 µM, added: OHHL 200 nM | – | inhibition | 4 ± 4%
Cn1cc(-c2ccc(-c3cncc(Cl)c3N3CCC4(CCNC4=O)CC3)cc2)cn1 | COLO 205 | gene expression, microarray, measured: PCK1 mRNA | – | concentration not given, 2 h | relative to: untreated cells | log2 fold change | -2.28
Cl.c1ccc(-c2nc3n(c2-c2ccc4c(c2)OCO4)CCC3)nc1 | Trypanosoma brucei brucei | cell growth | – | concentration not given, PKIS HTS | – | inhibition | 49.6%
CCc1nc2[nH]c(=O)n(O)c(=O)c2s1 | Digitaria adscendens | glasshouse pot | – | 750 g/ha, 21 days, pre-emergence | – | inhibition | 0%
CC1(C)OC[C@@]2(C)[C@H]3CC[C@@H]4CN(Cc5ccccc5)[C@@H](C5=CCOC5=O)C[C@H]4[C@]3(C)CC[C@H]2O1 | Human coronavirus 229E | cytopathic effect | MRC5 | 25 µM, corrected for cytotoxicity | – | inhibition | 12.1%
CC(C)C[C@H](NC(=O)C[C@H](O)[C@H](CC(C)C)NC(=O)[C@H](Cc1c[nH]cn1)NC(=O)CNC(=O)[C@@H](NC(=O)[C@H](C)NC(=O)[C@H](Cc1c[nH]c2ccccc12)NC(=O)[C@H](CCC(N)=O)NC(=O)[C@@H](Cc1ccccc1)NC(=O)COCCOCCNC(=O)CCC(C(=O)O)N1CCN(CC(=O)O)CCN(CC(=O)O)CCN(CC(=O)O)CC1)C(C)C)C(N)=O (some centres unmarked) [lutetium-177 labelled] | – | – | BALB/c nu/nu mice, skin | intravenous, 50 pmol, 1 h, added: PA 300 µg | – | tissue uptake | 0.4 ± 0.1 %ID/g
CC(C(=O)Nc1ccc([C@H]2[C@@H](F)[C@@H](F)C[C@@H](F)[C@H]2F)cc1)n1cncn1 (some centres unmarked) | – | – | cryopreserved mouse hepatocytes | 1 µM | – | hepatic clearance | 21 mL/min/kg
O=c1[nH]c2ncsc2c(=O)n1O | Digitaria adscendens | glasshouse pot | – | 750 g/ha, 21 days, pre-emergence | – | inhibition | 0%
Fc1ccc(-c2nc3n(c2-c2ccncc2)CCS3)cc1 | Trypanosoma brucei brucei | cell growth | – | concentration not given, PKIS HTS | – | inhibition | 7.7%
Cc1nc2[nH]c(=O)n(O)c(=O)c2s1 | Digitaria adscendens | glasshouse pot | – | 1500 g/ha, 21 days, pre-emergence | – | inhibition | 0%
C[C@]1(CO)[C@H]2CC[C@@H]3CN(Cc4cccs4)[C@@H](C4=CCOC4=O)C[C@H]3[C@]2(C)CC[C@H]1O | Human coronavirus 229E | cytopathic effect | MRC5 | 25 µM, corrected for cytotoxicity | – | inhibition | 23.2%
CN(C)CCOc1ccc(-c2nc(-c3ccncc3)c(-c3ccc4c(c3)CC/C4=N\O)[nH]2)cc1 | Trypanosoma brucei brucei | cell growth | – | concentration not given, PKIS HTS | – | inhibition | 38.5%
Cc1cc(OC(C)C)ccc1C(=O)C(C)(C)NC(=O)c1sccc1C | Botrytis cinerea | conidial germination | B05.10 | 100 µg/mL | – | inhibition | 100%
C[C@]1(CO)[C@H]2CC[C@@H]3CN(Cc4ccco4)[C@@H](C4=CCOC4=O)C[C@H]3[C@]2(C)CC[C@H]1O | Human coronavirus 229E | cytopathic effect | MRC5 | 25 µM, corrected for cytotoxicity | – | inhibition | -7.6%
Nc1nccc(-c2c(-c3ccc(F)cc3)ncn2C2CCNCC2)n1 | Trypanosoma brucei brucei | parasite growth, inhibitor | – | concentration not given, PKIS high-throughput screen | – | inhibition | 99.8%
CC(=O)c1ccc(C(=O)O)cc1 | Lactobacillus acidophilus | cell survival | – | 100 µM, 24 h | relative to: DMSO | inhibition | 27%
CC(=O)OC[C@@]1(C)[C@H]2CC[C@@H]3CN(CC(C)C)[C@@H](C4=CCOC4=O)C[C@H]3[C@]2(C)CC[C@H]1OC(C)=O | Human coronavirus 229E | cytopathic effect | MRC5 | 25 µM, corrected for cytotoxicity | – | inhibition | -5.9%
O=C(Nc1ccc(C2CCCCC2)cc1)c1cn[nH]c1 | – | – | dog liver microsomes | 1 µM | – | hepatic clearance | 20 mL/min/kg

Some of these lines once more:
Structure (SMILES) | tested on | test | test system | setting | how to read | quantity | result
CC(C)C[C@H](NC(=O)C[C@H](O)[C@H](CC(C)C)NC(=O)[C@H](Cc1c[nH]cn1)NC(=O)CNC(=O)[C@@H](NC(=O)[C@H](C)NC(=O)[C@H](Cc1c[nH]c2ccccc12)NC(=O)[C@H](CCC(N)=O)NC(=O)[C@@H](Cc1ccccc1)NC(=O)COCCOCCNC(=O)CCC(C(=O)O)N1CCN(CC(=O)O)CCN(CC(=O)O)CCN(CC(=O)O)CC1)C(C)C)C(N)=O (some centres unmarked) [lutetium-177 labelled] | – | – | BALB/c nu/nu mice, skin | intravenous, 50 pmol, 1 h, added: PA 300 µg | – | tissue uptake | 0.4 ± 0.1 %ID/g
CC(=O)c1ccc(C(=O)O)cc1 | Lactobacillus acidophilus | cell survival | – | 100 µM, 24 h | relative to: DMSO | inhibition | 27%
Cc1cc(OC(C)C)ccc1C(=O)C(C)(C)NC(=O)c1sccc1C | Botrytis cinerea | conidial germination | B05.10 | 100 µg/mL | – | inhibition | 100%
